{"data": "Measurements from different studies", "note": "Numbered parts are unrelated; each lists some results of a single study. Changes are numbered by the printed parent chain."}
{"data": "Sample 1", "target": "CCND1, cyclin fold, Cln2 fusion (human)", "technique": "yeast growth competition, sequencing", "matrix": "yeast", "notes": "strong parent motif", "relative to": "not given", "direction": "higher = stronger binding", "parent": "CDKN1A docking peptide (human); SKACRRLFGPVDS"}
{"Change": "V11N", "normalised enrichment score": 3.69}
{"Change": "K2I", "normalised enrichment score": 1.42}
{"Change": "K2T", "normalised enrichment score": 3.15}
{"Change": "R5F", "normalised enrichment score": 0.118}
{"Change": "G9N", "normalised enrichment score": 2.6}
{"Change": "R5W", "normalised enrichment score": 0.384}
{"Change": "A3L", "normalised enrichment score": 0.472}
{"Change": "K2L", "normalised enrichment score": 1.29}
{"Change": "K2G", "normalised enrichment score": 2.82}
{"Change": "A3I", "normalised enrichment score": 0.92}
{"Change": "V11C", "normalised enrichment score": 3.42}
{"Change": "R5N", "normalised enrichment score": 0.233}
{"Change": "A3E", "normalised enrichment score": 0.151}
{"Change": "C4D", "normalised enrichment score": 0.244}
{"Change": "K2Y", "normalised enrichment score": 1.54}
{"Change": "A3S", "normalised enrichment score": 0.346}
{"Change": "F8G", "normalised enrichment score": 0.122}
{"Change": "A3T", "normalised enrichment score": 1.78}
{"Change": "L7V", "normalised enrichment score": 0.231}
{"Change": "R6Q", "normalised enrichment score": 3.41}
{"Change": "D12E", "normalised enrichment score": 2.79}
{"Change": "D12L", "normalised enrichment score": 1.31}
{"Change": "K2V", "normalised enrichment score": 1.7}
{"Change": "C4Q", "normalised enrichment score": 1.39}
{"data": "Sample 2", "target": "RNA binding protein fox-1 homolog 2, RRM domain, GST-SBP tag (RBFOX2, Homo sapiens, UniProt O43251-10, residues 100-194)", "technique": "RNA Bind-n-Seq", "molecule type": "RNA", "matrix": "in vitro", "tested at": "365 nM", "notes": "natural RNA segment, single round, ends assumed", "relative to": "no-protein control", "direction": "higher = stronger binding", "constant ends, left off below": "GGGAGUUCUACAGUCCGACGAUC … UGGAAUUCUCGGGUGCCAA", "Construct (chain)": "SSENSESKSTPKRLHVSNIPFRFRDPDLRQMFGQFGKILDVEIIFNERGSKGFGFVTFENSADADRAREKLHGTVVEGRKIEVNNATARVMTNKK"}
{"Oligonucleotide": "CAGGGCUUGCACGUCACUCUGGUCUGUUCAUCGUGGUUCACAGGGCAAGGUGAAAGACACUUGAAUUUCUCUUUUUAGCAAUCUUACUGUUUUCUGGUGCUGACUGCUAC", "RBNS enrichment (R)": 4.3}
{"Oligonucleotide": "UAACAAAAGCCGCGACAGCCACCAGGCAGGCUUUUCCUUAUACAUGACAGAAGUUCGUAUUACGCCUUGGAAGGUCUAGGUGGAGAUCACCACCAGCAUUCUCUGCCUGU", "RBNS enrichment (R)": 0.43}
{"Oligonucleotide": "UCCCAGGAUCCCCUUGUCCCUGGAGUAGGGACUAACUAUAGCACAAAGUAAUAUGUGCCAAUGCUAUUUGUGAAAUGUUUGGUCUUUCUAAACGACUAAAGGAUUUGUUG", "RBNS enrichment (R)": 0.781}
{"Oligonucleotide": "AUUGAAAAUGUUUAAUACAUCUCAUUAUUGACAAAAUAUGUCAUCUUGUAUUUAUUUCAAGGAAACCAAUGAAUUCUAGGUAGUAUAUUACAAGUUGGUCAAAAUAUUCC", "RBNS enrichment (R)": 0.901}
{"Oligonucleotide": "UACAACUCUGAUUUUAAAACAAAAAAAUCUUUACAACAAGCUAUAUAGGGACAUACCAGAUGUUGCAGUGAUUUUAGCUAUCAACAAACUGUUAACCAUGUACAAUAUUU", "RBNS enrichment (R)": 0.518}
{"Oligonucleotide": "GUGCUCCUGCUUCGGCUCUGUUUCGGCUCACAGGUGUGCAUCACUGGGCUUGGAUUUGCAUUACAUUGACCCCAGCCCUGCAGUGGAACCUAAUAAAAGCGCCUGAAGCA", "RBNS enrichment (R)": 12.3}
{"Oligonucleotide": "CCUCUAGUCUACCACCAGUGUUAACGCACUCUAAAGUUGUAACCAAAAUAAAUGUCUUACAUUACAAGACGUCUGUUUUGUGUUUCCUUUUGUGUGUUUGGGCUUUUUAU", "RBNS enrichment (R)": 0.307}
{"Oligonucleotide": "GGACCUCCAGGCGGCUCAGUGCUGCCUGCGGCCCAGCUAAGGGGCCUGGCCACUGGGUGCCACCCAGCCUGUGUGCCCUCCCUGGGGCUGAGGAGGCAGGCGGCUGCUAG", "RBNS enrichment (R)": 0.27}
{"data": "Sample 3", "target": "Sal-like protein 4, full length isoform A (SALL4, Homo sapiens, UniProt Q9UJQ4, residues 1-1053)", "technique": "universal PBM", "molecule type": "double-stranded DNA, one strand shown", "matrix": "in vitro", "tested at": "600 nM", "notes": "8-mer, flanks averaged, mean of replicates", "direction": "higher = stronger binding", "sequence of UniProt Q9UJQ4 (whole entry, looked up)": "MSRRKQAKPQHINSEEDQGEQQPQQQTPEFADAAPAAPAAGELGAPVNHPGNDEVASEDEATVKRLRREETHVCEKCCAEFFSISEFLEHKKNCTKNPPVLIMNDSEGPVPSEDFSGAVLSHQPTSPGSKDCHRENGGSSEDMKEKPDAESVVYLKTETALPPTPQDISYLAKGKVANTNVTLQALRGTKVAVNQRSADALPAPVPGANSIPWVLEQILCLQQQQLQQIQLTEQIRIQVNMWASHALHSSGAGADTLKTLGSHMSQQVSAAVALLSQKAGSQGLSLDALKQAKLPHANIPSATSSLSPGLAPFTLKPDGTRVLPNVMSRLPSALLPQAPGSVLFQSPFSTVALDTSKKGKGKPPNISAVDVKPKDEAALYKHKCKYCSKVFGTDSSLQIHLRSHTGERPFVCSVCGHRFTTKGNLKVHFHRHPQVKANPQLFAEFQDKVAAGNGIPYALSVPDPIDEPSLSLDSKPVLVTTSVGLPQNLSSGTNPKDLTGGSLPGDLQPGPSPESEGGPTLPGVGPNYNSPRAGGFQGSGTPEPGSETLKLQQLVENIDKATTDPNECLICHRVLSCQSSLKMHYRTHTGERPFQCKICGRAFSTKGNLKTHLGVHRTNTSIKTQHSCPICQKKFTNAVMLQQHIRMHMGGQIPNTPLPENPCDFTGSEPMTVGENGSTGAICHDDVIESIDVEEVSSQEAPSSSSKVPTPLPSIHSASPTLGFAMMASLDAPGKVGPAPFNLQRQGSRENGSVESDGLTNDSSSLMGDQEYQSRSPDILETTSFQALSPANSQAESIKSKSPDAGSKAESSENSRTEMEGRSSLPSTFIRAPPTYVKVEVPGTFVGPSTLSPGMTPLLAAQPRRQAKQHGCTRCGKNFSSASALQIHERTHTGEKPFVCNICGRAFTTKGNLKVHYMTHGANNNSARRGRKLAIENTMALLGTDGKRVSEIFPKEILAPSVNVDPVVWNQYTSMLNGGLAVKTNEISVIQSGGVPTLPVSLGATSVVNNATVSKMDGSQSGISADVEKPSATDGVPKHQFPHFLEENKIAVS"}
{"Oligonucleotide": "TCGTCGAA", "E-score": 0.0386}
{"Oligonucleotide": "CGACTGTC", "E-score": -0.128}
{"Oligonucleotide": "ACTCCAAC", "E-score": -0.0749}
{"Oligonucleotide": "AGGAATCC", "E-score": -0.117}
{"Oligonucleotide": "AGAGATGC", "E-score": -0.136}
{"Oligonucleotide": "ACCTGGGG", "E-score": -0.394}
{"Oligonucleotide": "ACATGCCT", "E-score": -0.027}
{"Oligonucleotide": "AAATAATC", "E-score": 0.354}
{"Oligonucleotide": "CGAGCACA", "E-score": -0.0221}
{"Oligonucleotide": "CCTCTATC", "E-score": -0.0609}
{"Oligonucleotide": "CGGGTTGA", "E-score": -0.299}
{"Oligonucleotide": "GAGTCGCA", "E-score": -0.117}
{"Oligonucleotide": "TCTAATCA", "E-score": 0.188}
{"Oligonucleotide": "AGCTGATC", "E-score": -0.0963}
{"Oligonucleotide": "CTAAACAC", "E-score": 0.194}
{"Oligonucleotide": "CCGCGAAA", "E-score": -0.139}
{"Oligonucleotide": "GTCGAGCA", "E-score": -0.184}
{"Oligonucleotide": "AATTAGCA", "E-score": 0.217}
{"Oligonucleotide": "ACAGAGAC", "E-score": -0.00445}
{"Oligonucleotide": "CGTGTGTC", "E-score": -0.0886}
{"Oligonucleotide": "GGCTAGCC", "E-score": -0.347}
{"Oligonucleotide": "AGTACCAA", "E-score": 0.108}
{"Oligonucleotide": "TGGATACA", "E-score": 0.0981}
{"Oligonucleotide": "CAGATTGG", "E-score": -0.154}
{"Oligonucleotide": "GGGAGTCA", "E-score": -0.195}
{"data": "Sample 4", "target": "RING finger protein unkempt homolog, zinc fingers 1-6, GST-SBP tag (UNK, Homo sapiens, UniProt Q9C0B0, residues 30-357)", "technique": "RNA Bind-n-Seq", "molecule type": "RNA", "matrix": "in vitro", "tested at": "not given", "notes": "RNA with constant flanks, human and mouse sites, ends assumed", "relative to": "input RNA pool", "direction": "higher = stronger binding", "constant ends, left off below": "GGGAGUUCUACAGUCCGACGAUC … CAACAGAGGAUUGAGCAUCA", "Residues (chain)": "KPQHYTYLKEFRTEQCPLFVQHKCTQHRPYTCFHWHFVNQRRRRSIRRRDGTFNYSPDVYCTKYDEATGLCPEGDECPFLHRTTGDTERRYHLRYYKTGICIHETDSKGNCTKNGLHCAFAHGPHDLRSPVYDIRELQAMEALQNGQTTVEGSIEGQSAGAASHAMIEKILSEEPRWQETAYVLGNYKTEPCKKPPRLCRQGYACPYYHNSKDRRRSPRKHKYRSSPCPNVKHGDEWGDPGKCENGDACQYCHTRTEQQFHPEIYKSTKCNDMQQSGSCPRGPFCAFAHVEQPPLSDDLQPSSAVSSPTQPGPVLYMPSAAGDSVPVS"}
{"Oligonucleotide": "CGGAGCCCUCCUCUCCCACAGGCCCAAGAUAUAACCCACCAGUGCCUUUUGUCUUCCUGUCAGCUCUGUCAAUCACGCCUGUCCUCUCACGCCCACACCAAGUGCCCAAAGUGGGGAGGG", "bound/input enrichment [ratio]": 0.512}
{"Oligonucleotide": "AUCAUGCAAACAGUGAAGGGAUUUUUUUAUGUUUCAUUACUUCUUGACAUUCUGAAAGAGAUAACUGGAAGUUCCUUGAUUCAGAAAACAGAUUCAGAUGAAGAAGUUGCAAUGCUGUUG", "bound/input enrichment [ratio]": 0.144}
{"Oligonucleotide": "UAUAAGAUUAAGGUUUGGAAUUACAAACUUCGGCGCUGCCUGUUCACAUUGCUCGGGCACUUGGAUUAUAUCCGUACAACGUUUUUCCAUCAUGAAUAUCCUUGGAUUCUGAGCGCCUCA", "bound/input enrichment [ratio]": 0.15}
{"Oligonucleotide": "GAGUGGCAUAAAGUUUUUGAUCUUCCAGAGUCACUUGGUGGCAUUCGAGCCUGUACACUCACAGUUUUUCCACCUGAAGAAAACCCUGGGUCACCUUCUAGAGAAUCACCUCUUUCAGCA", "bound/input enrichment [ratio]": 0.295}
{"Oligonucleotide": "AUAAUGUGUGUGGCUGGUAUUGGACUUGUUGUAUUAUUCUUCAGUUGGAUGCUCUCUAUUUUUAGAUCUAAAUAUCAUGGCUACCCAUACAGCUUUCUGAUGAGUUAAAAAGGUCCCAGA", "bound/input enrichment [ratio]": 0.375}
{"Oligonucleotide": "AAGCACAAUGAACUGAAACCGUACAAAUGCCAGCUCUGCUACUAUGAGACCAAGCACACGGAGGAACUGGACACUCACCUUCGGGAUGAGCACAAGGUGAGCCGGAACUUUGAGCUGGUU", "bound/input enrichment [ratio]": 0.0869}
{"Oligonucleotide": "CUUCUGGAGAAGUUGUACAAGGUAAAUCUUAAGGUGAAGCAUGUGGAAUACGAUAAGUUUUAUAUCCCUGAGAUUUCUAGUCUUGUGGACAUUCAGGAAGACUACCUCAUGUGGUUUUUG", "bound/input enrichment [ratio]": 0.183}
{"Oligonucleotide": "AAAGCAAUAAAUGUAGAUCUUCAAAGUGAUGCUGCUCUGCAGGUGGACAUUUCUGAUGCUCUUAGUGAGCGGGAUAAAGUAAAAUUCACUGUUCACACAAAGAGUUCAUUGCCAAAUUUU", "bound/input enrichment [ratio]": 0.216}
{"note": "Repeated from above (sample 3):"}
{"Oligonucleotide": "AAATAATC", "E-score": 0.354}
{"Oligonucleotide": "GGCTAGCC", "E-score": -0.347}
{"Oligonucleotide": "CGACTGTC", "E-score": -0.128}
{"Oligonucleotide": "CAGATTGG", "E-score": -0.154}
{"Oligonucleotide": "CGAGCACA", "E-score": -0.0221}
{"Oligonucleotide": "TCTAATCA", "E-score": 0.188}
